{"data": "Measured values from different studies", "note": "Each line is one published result; not all experiments were run side by side. ± marks the error that the study gave."}
{"Compound": "O=C([O-])CN1CCN(CC(=O)[O-])CCN(CC(=O)NC[C@H]2CC[C@H](C(=O)N[C@H](Cc3cnc4ccccc4c3)C(=O)NCCCC[C@H](NC(=O)N[C@@H](CCC(=O)O)C(=O)O)C(=O)O)CC2)CCN(CC(=O)[O-])CC1.[64Cu+2]", "test": "ex vivo gamma counting", "test system": "22Rv1 tumour-bearing mice, tumor", "setting": "intravenous, 0.74 MBq, 6 h", "tissue uptake [%ID/g]": "17.8 ± 3.6"}
{"Compound": "CC(F)C(=O)NC[C@@H]1O[C@H](C(=O)NCCCC[C@@H]2NC(=O)[C@@H](Cc3ccccc3)NC(=O)[C@H](CC(=O)O)NC(=O)CNC(=O)[C@H](CCCNC(=N)N)NC2=O)[C@H](O)[C@H](O)[C@H]1O (stereo partly shown) [fluorine-18 labelled]", "test": "small-animal PET", "test system": "female athymic nude mice, U-87 MG xenograft, liver", "setting": "intravenous, 3.7 MBq, 60 min", "tissue uptake [%ID/g]": "0.2 ± 0.02"}
{"Compound": "CN1C(=O)[C@@H](Cc2ccc(O)c(I)c2)NC(=O)CNC(=O)[C@H](Cc2ccc3ccccc3c2)NC(=O)[C@H](CCCNC(=N)N)NC(=O)[C@H]1CCCNC(=O)c1ccc(CNC(=O)CN2CCN(CC(=O)O)CCN(CC(=O)O)CCN(CC(=O)O)CC2)cc1 [lutetium-177 labelled]", "test": "refers to: 177Lu radioactivity", "test system": "female CB-17 SCID mice, Daudi xenograft, brain", "setting": "intravenous, 0.16 nmol per mouse, 1 h", "tissue uptake [%ID/g]": "0.05 ± 0.01"}
{"Compound": "CCCC[C@H](NC(=O)CN1CCC(NC(=O)CN2CCN(CC(=O)O)CCN(CC(=O)O)CCN(CC(=O)O)CC2)CC1)C(=O)N[C@H]1CC(=O)NCCCC[C@@H](C(N)=O)NC(=O)[C@H](Cc2c[nH]c3ccccc23)NC(=O)[C@H](CCCNC(=N)N)NC(=O)[C@@H](Cc2ccccc2)NC(=O)[C@H](Cc2c[nH]cn2)NC1=O [gallium-68 labelled]", "test system": "C57BL/6J mice male B16-F10 tumour, liver", "setting": "2 h post injection, unblocked", "tissue uptake [%ID/g]": 0.7}
{"Compound": "CCCC[C@@H]1NC(=O)[C@@H](NC(=O)[C@H](CCC(=O)O)NC(=O)CNC(=O)CN2CCN(CC(=O)O)CCN(CC(=O)O)CCN(CC(=O)O)CC2)CCCCNC(=O)C[C@@H](C(N)=O)NC(=O)[C@H](C(C)C)NC(=O)[C@@H]2CCCN2C(=O)[C@H](CCCNC(=N)N)NC(=O)CNC(=O)[C@H](Cc2c[nH]c3ccccc23)NC(=O)[C@H](CCCNC(=N)N)NC(=O)[C@@H](Cc2ccccc2)NC(=O)[C@H](Cc2c[nH]cn2)NC(=O)[C@H](CCC(=O)O)NC1=O [gallium-67 labelled]", "test system": "C57 mice, B16/F10 lung metastases, blood", "setting": "intravenous, 0.037 MBq/mouse, 4 h", "tissue uptake [%ID/g]": "0.06 ± 0.04"}
{"Compound": "O=C([O-])CN1CCN(CC(=O)[O-])CCN(CC(=O)[O-])CCN(CC(=O)[O-])CC1.[64Cu+2]", "test system": "healthy athymic nude mice, lung", "setting": "intravenous, 1 h", "tissue uptake [%ID/g]": 0.89}
{"Compound": "N=C(N)NCCC[C@H](NC(=O)[C@@H]1CSSC[C@H](NC(=O)[C@H](Cc2ccc3ccccc3c2)NC(=O)[C@H](CCCNC(=N)N)NC(=O)[C@H](CCCNC(=N)N)NC(=O)CN2CCN(CC(=O)O)CCN(CC(=O)O)CCN(CC(=O)O)CC2)C(=O)N[C@@H](Cc2ccc(O)cc2)C(=O)N[C@@H](CCCNC(N)=O)C(=O)N[C@@H](CCCCN)C(=O)N[C@H](CCCCN)C(=O)N2CCC[C@H]2C(=O)N[C@@H](Cc2ccc(O)cc2)C(=O)N[C@@H](CCCNC(=N)N)C(=O)N[C@@H](CCCNC(N)=O)C(=O)N1)C(N)=O [copper-64 labelled]", "test": "PET", "test system": "tumour-bearing mice, liver", "setting": "100 µCi, 24 h", "tissue uptake [%ID/g]": "13.6 ± 1.24"}
{"Compound": "CC(F)C(=O)NC[C@@H]1O[C@H](C(=O)N[C@@H](CCC(=O)NCCCC[C@@H]2NC(=O)[C@@H](Cc3ccc(O)cc3)NC(=O)[C@H](CC(=O)O)NC(=O)CNC(=O)[C@H](CCCNC(=N)N)NC2=O)C(=O)NCCCC[C@@H]2NC(=O)[C@@H](Cc3ccc(O)cc3)NC(=O)[C@H](CC(=O)O)NC(=O)CNC(=O)[C@H](CCCNC(=N)N)NC2=O)[C@H](O)[C@H](O)[C@H]1O (stereo partly shown) [fluorine-18 labelled]", "test": "small-animal PET", "test system": "female athymic nude mice, U-87 MG xenograft, kidney", "setting": "intravenous, 3.7 MBq, 120 min", "tissue uptake [%ID/g]": "1.68 ± 0.32"}
{"Compound": "CCCC[C@H](NC(=O)CNC(=O)CNC(=O)CN1CCN(CC(=O)O)CCN(CC(=O)O)CC1)C(=O)N[C@H]1CC(=O)NCCCC[C@@H](C(N)=O)NC(=O)[C@H](Cc2c[nH]c3ccccc23)NC(=O)[C@H](CCCNC(=N)N)NC(=O)[C@@H](Cc2ccccc2)NC(=O)[C@H](Cc2c[nH]cn2)NC1=O [gallium-67 labelled]", "test system": "female C57 mice, B16/F1 melanoma, tumor", "setting": "intravenous, 0.037 MBq, 24 h", "tissue uptake [%ID/g]": "7.95 ± 2.58"}
{"Compound": "O=C([O-])CN1CCN(CC(=O)[O-])CC(Cc2ccc(NC(=S)NCCOCCOCCOCCOCCOCCOCCOCCNC(=O)CCCC(=O)NCc3ccc(-c4nncnn4)cc3)cc2)N(CC(=O)[O-])CC1.[64Cu+2] (stereo not shown)", "test": "PET and biodistribution", "test system": "healthy athymic nude mice, large intestine with contents", "setting": "4 h post-injection", "tissue uptake [%ID/g]": "4.9 ± 0.7"}
{"note": "Repeated from above:"}
{"Compound": "CCCC[C@H](NC(=O)CN1CCC(NC(=O)CN2CCN(CC(=O)O)CCN(CC(=O)O)CCN(CC(=O)O)CC2)CC1)C(=O)N[C@H]1CC(=O)NCCCC[C@@H](C(N)=O)NC(=O)[C@H](Cc2c[nH]c3ccccc23)NC(=O)[C@H](CCCNC(=N)N)NC(=O)[C@@H](Cc2ccccc2)NC(=O)[C@H](Cc2c[nH]cn2)NC1=O [gallium-68 labelled]", "test system": "C57BL/6J mice male B16-F10 tumour, liver", "setting": "2 h post injection, unblocked", "tissue uptake [%ID/g]": 0.7}
